Measurements of several laboratories.
Each numbered part is a random draw from the data of one study; scales do not carry over between parts.

Chains of the proteins cited; added tags and fusions are not shown.
UniProt Q14296, whole entry: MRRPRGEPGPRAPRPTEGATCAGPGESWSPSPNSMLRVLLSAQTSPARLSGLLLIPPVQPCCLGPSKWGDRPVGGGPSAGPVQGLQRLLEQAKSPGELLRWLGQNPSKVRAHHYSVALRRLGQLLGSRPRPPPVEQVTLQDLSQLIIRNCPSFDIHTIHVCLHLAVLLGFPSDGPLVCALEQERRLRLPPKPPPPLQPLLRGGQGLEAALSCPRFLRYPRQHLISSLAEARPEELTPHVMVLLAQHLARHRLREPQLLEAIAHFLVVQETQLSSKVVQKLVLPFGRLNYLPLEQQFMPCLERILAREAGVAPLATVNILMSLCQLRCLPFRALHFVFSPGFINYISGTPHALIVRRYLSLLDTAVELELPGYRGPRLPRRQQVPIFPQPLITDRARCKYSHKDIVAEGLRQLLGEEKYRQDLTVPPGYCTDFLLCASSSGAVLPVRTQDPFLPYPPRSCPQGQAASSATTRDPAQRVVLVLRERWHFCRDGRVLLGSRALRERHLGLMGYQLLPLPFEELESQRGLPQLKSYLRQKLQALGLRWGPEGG
UniProt Q8NE63, whole entry: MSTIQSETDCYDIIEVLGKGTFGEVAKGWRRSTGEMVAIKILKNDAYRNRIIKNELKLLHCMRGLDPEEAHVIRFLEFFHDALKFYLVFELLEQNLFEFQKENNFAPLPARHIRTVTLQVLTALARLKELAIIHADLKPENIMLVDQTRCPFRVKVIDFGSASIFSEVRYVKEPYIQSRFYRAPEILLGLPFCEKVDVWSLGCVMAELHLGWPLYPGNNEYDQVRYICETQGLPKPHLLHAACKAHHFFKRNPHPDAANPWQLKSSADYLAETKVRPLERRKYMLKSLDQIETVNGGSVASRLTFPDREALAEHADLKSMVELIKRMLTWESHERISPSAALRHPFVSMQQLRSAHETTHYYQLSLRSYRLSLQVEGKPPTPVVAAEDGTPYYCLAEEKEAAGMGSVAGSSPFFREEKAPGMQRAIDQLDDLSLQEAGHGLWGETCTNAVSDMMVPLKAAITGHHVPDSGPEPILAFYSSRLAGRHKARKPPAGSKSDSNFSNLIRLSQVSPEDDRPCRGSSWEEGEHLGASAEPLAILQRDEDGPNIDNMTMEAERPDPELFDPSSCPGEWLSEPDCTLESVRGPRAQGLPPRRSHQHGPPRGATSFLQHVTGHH
UniProt P50613, whole entry: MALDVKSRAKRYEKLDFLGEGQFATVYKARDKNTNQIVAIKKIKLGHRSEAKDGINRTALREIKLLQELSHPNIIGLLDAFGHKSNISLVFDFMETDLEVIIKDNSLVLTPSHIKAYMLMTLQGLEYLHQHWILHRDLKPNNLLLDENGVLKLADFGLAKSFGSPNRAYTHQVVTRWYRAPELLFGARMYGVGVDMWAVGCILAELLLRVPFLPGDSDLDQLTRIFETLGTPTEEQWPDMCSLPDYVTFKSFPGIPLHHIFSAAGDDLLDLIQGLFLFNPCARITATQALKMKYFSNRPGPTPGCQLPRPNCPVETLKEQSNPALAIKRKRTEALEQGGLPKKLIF
UniProt P04150, whole entry: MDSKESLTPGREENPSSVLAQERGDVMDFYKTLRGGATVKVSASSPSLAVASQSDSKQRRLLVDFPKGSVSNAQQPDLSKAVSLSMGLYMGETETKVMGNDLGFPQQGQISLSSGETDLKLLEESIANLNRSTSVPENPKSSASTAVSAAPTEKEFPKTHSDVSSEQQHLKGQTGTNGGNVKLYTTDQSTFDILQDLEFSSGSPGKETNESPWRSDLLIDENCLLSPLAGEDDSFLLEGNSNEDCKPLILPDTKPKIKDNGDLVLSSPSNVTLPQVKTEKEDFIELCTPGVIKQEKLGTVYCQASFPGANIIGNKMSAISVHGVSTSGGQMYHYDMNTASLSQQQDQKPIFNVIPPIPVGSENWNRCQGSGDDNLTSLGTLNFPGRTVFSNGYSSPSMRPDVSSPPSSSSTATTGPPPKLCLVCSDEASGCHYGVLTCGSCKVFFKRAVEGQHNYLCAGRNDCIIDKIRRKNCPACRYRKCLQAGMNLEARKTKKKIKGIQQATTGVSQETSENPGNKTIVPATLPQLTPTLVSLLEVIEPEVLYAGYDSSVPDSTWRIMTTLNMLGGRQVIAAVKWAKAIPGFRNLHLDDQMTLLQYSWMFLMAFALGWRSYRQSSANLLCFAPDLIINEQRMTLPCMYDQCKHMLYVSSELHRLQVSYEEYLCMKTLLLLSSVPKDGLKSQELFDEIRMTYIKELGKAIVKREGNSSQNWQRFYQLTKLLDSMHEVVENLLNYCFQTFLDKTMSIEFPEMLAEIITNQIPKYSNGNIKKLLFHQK
UniProt O95278, whole entry: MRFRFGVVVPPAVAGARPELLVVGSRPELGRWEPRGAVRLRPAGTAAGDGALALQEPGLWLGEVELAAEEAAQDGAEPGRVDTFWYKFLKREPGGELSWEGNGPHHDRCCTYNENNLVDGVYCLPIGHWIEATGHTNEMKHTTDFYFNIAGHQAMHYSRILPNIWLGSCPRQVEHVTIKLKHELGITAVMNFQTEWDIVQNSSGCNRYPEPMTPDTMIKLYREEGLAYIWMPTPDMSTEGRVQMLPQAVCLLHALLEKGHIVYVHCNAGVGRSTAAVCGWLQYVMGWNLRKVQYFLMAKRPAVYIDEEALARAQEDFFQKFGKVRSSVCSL

Study 1 — action: inhibitor; concentration: 5 µM
SMILES: CCN1CCN(Cc2ccc(NC(=O)c3ccc(C)c(/C=C/c4cnc5[nH]ccc5c4OC)c3)cc2C(F)(F)F)CC1
It gave -0.245 for “log2 fold change” (Fas-activated serine/threonine kinase (Homo sapiens, UniProt Q14296); cell-based kinome screen; human cells; relative to: untreated).
It gave 0.071 for “log2 fold change” (HIPK4 (Homo sapiens, UniProt Q8NE63); kinase-CDC37 interaction; human cells; relative to: vehicle).
For CDK7 (Homo sapiens, UniProt P50613); cell-based kinome screen; relative to: vehicle: “log2 fold change” read 0.281 log2.

Single results of other studies
`C[C@@]12CC[C@H]3[C@H](CCC4=CC(=O)CC[C@H]43)[C@H]1CC[C@H]2OC1(O)C(=O)c2ccccc2C1=O` has an EC50 of over 9 µM (NR3C1 (Homo sapiens, UniProt P04150); nuclear translocation, agonist, enzyme fragment complementation).
For `COc1cc(CC(=O)NCC(NC(=O)C(CCCNC(=O)c2cccc(I)c2)NC(=O)C(Cc2ccc(C(F)(F)P(=O)(O)O)cc2)NC(=O)c2ccc(C)c(Br)c2)C(N)=O)ccc1O` (stereo not drawn), inhibition read “no inhibition” (Laforin (EPM2A, Homo sapiens, UniProt O95278); enzyme activity; 10 µM).
`CC#C/C(=N\OC[C@H]1COCCN1)c1ccc2ncnc(Nc3ccc(OCc4cccc(F)c4)c(Cl)c3)c2c1` has an ED50 of 53.8 mg/kg (tumour growth; LoVo, nude mouse subcutaneous xenograft; oral, 21 days daily).

Repeated from above (study 1):
It gave 0.071 for “log2 fold change” (HIPK4 (Homo sapiens, UniProt Q8NE63); kinase-CDC37 interaction; human cells; relative to: vehicle).
